Assay results of several laboratories.
Compare with care: the assays were run in different laboratories. Several values in a cell are separate wells, animals, samples, runs or records. ± gives the spread as reported. Converted amounts (≈) assume the structure as drawn.

Structure (SMILES) | organism | assay | system | conditions | scale | endpoint | result
CNCc1ccc2c(c1)N(C(=O)OCc1c(F)c(F)c(F)c(F)c1F)[C@H](CNC(=N)N)[C@H]2NC(=O)C(=O)Nc1ccc(Cl)c(F)c1 | HIV-1 | pseudovirus infection, Env pseudovirus neutralisation | TZM-bl, clade B T/F isolate d15_410_787 | – | – | IC80 | 919 nM
COc1ccc(Nc2n[nH]c3nc(-c4ccccc4)nc(N)c23)cc1OC | coxsackievirus B3 | viral cytopathic effect | HeLa | – | – | IC50 | 3590 nM
COc1ccc(C(c2c[nH]c(=O)[nH]c2=O)c2c[nH]c(=O)[nH]c2=O)cc1 | Human immunodeficiency virus 1 | viral replication, inhibitor, ELISA | – | 1 µg/mL | – | inhibition | 5%
Nc1nc(-c2ccc(OC(F)(F)F)cc2)nc2[nH]nc(Nc3ccc(Cl)cc3)c12 | coxsackievirus B3 | viral cytopathic effect | HeLa | – | – | IC50 | 3100 nM
C=C(NC(=O)c1csc(-c2nc3c(cc2O)-c2nc(cs2)C(=O)NC(C(C)O)C(=O)NC(=C(C)OC)c2nc(cs2)C(=O)NC2c4nc(cs4)C(=O)NC(COC(=O)c4c5c6c(cccc6n4O)COC(=O)C(OC4CC(C)(O)C(N(C)C)C(C)O4)C2OC5)c2nc-3cs2)n1)C(N)=O (centres unmarked) | Staphylococcus aureus | broth microdilution | methicillin-susceptible isolates | – | – | MIC50 | 0.0156 µg/mL (≈ 0.0109 µM)
C=C[C@]1(C)C[C@@H](OC(=O)CSc2ccc(NC(=O)c3ccco3)cc2)[C@]2(C)[C@H](C)CC[C@]3(CCC(=O)[C@H]32)[C@@H](C)[C@@H]1O | Mycoplasma gallisepticum | – | infected chickens | intramuscular, 80 mg/kg daily x3, scale 0 to 4 | direction not given | air sac lesion score | 2 and 1 and 0
CC[C@H](C)[C@H](NC(=O)[C@H](Cc1ccc(O)cc1)NC(=O)[C@H](CCC(=O)O)NC(=O)CNC(=O)[C@H](CCC(=O)O)NC(=O)[C@H](CCCCN)NC(=O)[C@H](CCCCN)NC(=O)[C@H](CC(=O)O)NC(=O)[C@H](Cc1c[nH]cn1)NC(=O)[C@H](Cc1c[nH]cn1)NC(=O)[C@H](Cc1c[nH]cn1)NC(=O)[C@H](Cc1c[nH]cn1)NC(=O)[C@H](Cc1c[nH]cn1)NC(=O)[C@H](Cc1c[nH]cn1)NC(=O)[C@H](Cc1c[nH]cn1)NC(=O)[C@H](Cc1c[nH]cn1)NC(=O)[C@H](Cc1c[nH]cn1)NC(=O)[C@@H](N)Cc1c[nH]cn1)C(=O)N[C@@H](CCCCN)C(=O)N[C@@H](CC(C)C)C(=O)N[C@@H](CCCCN)C(=O)N[C@H](C(=O)N[C@H](C(=O)NCC(=O)N[C@@H](CCC(N)=O)C(=O)N[C@@H](CC(=O)O)C(=O)N[C@@H](CO)C(=O)N[C@@H](CO)C(=O)N[C@@H](CCC(=O)O)C(=O)N[C@H](C(=O)N[C@@H](Cc1c[nH]cn1)C(=O)N[C@@H](Cc1ccccc1)C(=O)N[C@@H](CCCCN)C(=O)N[C@H](C(=O)N[C@@H](CCCCN)C(=O)N[C@@H](CCSC)C(=O)N[C@H](C(=O)N[C@H](C(=O)N[C@@H](Cc1c[nH]cn1)C(=O)N[C@@H](CC(C)C)C(=O)N[C@@H](CCCCN)C(=O)N[C@@H](CCCCN)C(=O)N[C@@H](CC(C)C)C(=O)N[C@@H](CCCCN)C(=O)N[C@@H](CCC(=O)O)C(=O)N[C@@H](CO)C(=O)N[C@@H](Cc1ccc(O)cc1)C(=O)N[C@@H](CS)C(=O)N[C@@H](CCC(N)=O)C(=O)N[C@@H](CCCNC(=N)N)C(=O)N[C@@H](CCC(N)=O)C(=O)O)[C@@H](C)O)[C@@H](C)O)C(C)C)[C@@H](C)CC)[C@@H](C)CC)C(C)C | Drosophila melanogaster | – | α-synuclein A53T transgenic | 120 µM, 11 days post eclosion, unit not given | relative to: untreated | climbing mean difference | -28
Cc1ccc(-c2nc(N)c3c(Nc4ccc(F)cc4)n[nH]c3n2)cc1 | coxsackievirus B3 | viral cytopathic effect | HeLa | – | – | IC50 | 17000 nM
Cc1ncsc1-c1ccc(CNC(=O)[C@@H]2C[C@@H](O)CN2C(=O)[C@@H](NC(=O)CN2CCN(C3CN(CCNC(=O)C[C@@H]4N=C(c5ccc(Cl)cc5)c5c(sc(C)c5C)-n5c(C)nnc54)C3)CC2)C(C)(C)C)cc1 | Spodoptera frugiperda | degrader, targeted LC-MS, measured: BRD3 | Sf9 | 0.001 µM | – | protein level | 91.7% and 138% and 94.6% and 76.2%
Cc1ccccc1C(c1c[nH]c(=O)[nH]c1=O)c1c[nH]c(=O)[nH]c1=O | Human immunodeficiency virus 1 | viral replication, inhibitor, ELISA | – | 1 µg/mL | – | inhibition | 64%
COC1C=COC2(C)Oc3c(C)c(O)c4c(c3C2=O)C2=NC3(CCN(CC(C)C)CC3)NC2=C(NC(=O)C(C)=CC=CC(C)C(O)C(C)C(O)C(C)C(OC(=O)Nc2cnccn2)C1C)C4=O (centres unmarked) | Mycobacteroides abscessus | bacterial growth | subsp. massiliense 097 clinical isolate | rough, slow grower | – | IC50 | 27 nM
c1ccc(CN2CCOCCOCCN(CCCCCCCCCCCCN3CCOCCOCCN(CCCCCCCCCCCCN4CCOCCOCCN(Cc5ccccc5)CCOCCOCC4)CCOCCOCC3)CCOCCOCC2)cc1 | Klebsiella pneumoniae | – | ATCC BAA-2146 | quarter MIC, with: ciprofloxacin | – | FIC index | 0.67
CC(C)(C)NCC(SS(=O)(=O)O)c1ccccc1 (centres unmarked) | Schistosoma mansoni | – | mice | 600 mg/kg single dose, dosed day 7, perfused 44 | – | female worms recovered | 8 worms per mouse and 9 worms per mouse and 10 worms per mouse and 7 worms per mouse and 12 worms per mouse
CC(=O)ON=C1C=CC(=C(C#N)c2ccccc2)C=C1 | Candidozyma auris | – | ATCC MYA-5001 | concentration not given | – | antifungal activity | active
CN(Cc1ccc(C2(C(F)(F)F)CCC2)cc1)Cc1cccc2ccccc12 | Trichophyton mentagrophytes | microbial growth, disc diffusion | ATCC18748 | 0.008 µg/mL, 72 h | – | inhibition zone | 15.8 mm
O=c1[nH]cc(C(c2ccc3ccccc3c2)c2c[nH]c(=O)[nH]c2=O)c(=O)[nH]1 | Human immunodeficiency virus 1 | viral replication, inhibitor, ELISA | – | 1 µg/mL | – | inhibition | 22%
COc1ccc(Nc2n[nH]c3nc(-c4ccccc4)nc(N)c23)c(OC)c1 | rhinovirus B42 | viral cytopathic effect | HeLa | – | – | IC50 | 550 nM
COc1cc(C)c(-c2ccc(O)c3c2C[C@@H](C)N[C@@H]3C)c2cccc(O)c12 (single isomer, unassigned) | Plasmodium falciparum | asexual parasite proliferation, SYBR Green I fluorescence | Dd2 | – | – | IC50 | 248 ± 46 nM
CSc1ccc(Nc2n[nH]c3nc(-c4ccccc4)nc(N)c23)cc1 | coxsackievirus B3 | viral cytopathic effect | HeLa | – | – | IC50 | 6890 nM
CC1(C)Cc2c(-c3cccc4ccccc34)ccc(O)c2C=N1 | Plasmodium falciparum | parasite growth, SYBR Green | NF54 | blood stage | – | IC50 | 1630 nM
Nc1nc(-c2ccccc2)nc2[nH]nc(Nc3ccccc3)c12 | rhinovirus B42 | viral cytopathic effect | HeLa | – | – | IC50 | 20 nM
O=C(O)c1ccc(O)c(O)c1 | Streptomyces coelicolor | RT-PCR | – | 2 mM, 1 h | – | pcaH mRNA level | increased
N#Cc1ccc(Nc2n[nH]c3nc(-c4ccccc4)nc(N)c23)cc1 | coxsackievirus B3 | viral cytopathic effect | HeLa | – | – | IC50 | 5200 nM
Cc1cccc2c1N(C(=O)n1ccnn1)CC2 | Striga hermonthica | – | seeds | 1 µM, with: 10 nM (±)-GR24 | – | germination rate | 83.8% and 93.2% and 85.2% and 67.9% and 84% and 69.6% and 80.6%
CC1=N[C@H](C)Cc2c(-c3ccc(C)cc3)ccc(O)c21 | Plasmodium falciparum | asexual parasite proliferation, SYBR Green I fluorescence | HB3 | – | – | IC50 | 1030 ± 110 nM
Cc1ccc(-c2nc(N)c3c(Nc4ccccc4)n[nH]c3n2)cc1 | rhinovirus B42 | viral cytopathic effect | HeLa | – | – | IC50 | 80 nM

A few entries again:
Structure (SMILES) | organism | assay | system | conditions | scale | endpoint | result
COc1ccc(Nc2n[nH]c3nc(-c4ccccc4)nc(N)c23)cc1OC | coxsackievirus B3 | viral cytopathic effect | HeLa | – | – | IC50 | 3590 nM
COc1ccc(Nc2n[nH]c3nc(-c4ccccc4)nc(N)c23)c(OC)c1 | rhinovirus B42 | viral cytopathic effect | HeLa | – | – | IC50 | 550 nM
CC[C@H](C)[C@H](NC(=O)[C@H](Cc1ccc(O)cc1)NC(=O)[C@H](CCC(=O)O)NC(=O)CNC(=O)[C@H](CCC(=O)O)NC(=O)[C@H](CCCCN)NC(=O)[C@H](CCCCN)NC(=O)[C@H](CC(=O)O)NC(=O)[C@H](Cc1c[nH]cn1)NC(=O)[C@H](Cc1c[nH]cn1)NC(=O)[C@H](Cc1c[nH]cn1)NC(=O)[C@H](Cc1c[nH]cn1)NC(=O)[C@H](Cc1c[nH]cn1)NC(=O)[C@H](Cc1c[nH]cn1)NC(=O)[C@H](Cc1c[nH]cn1)NC(=O)[C@H](Cc1c[nH]cn1)NC(=O)[C@H](Cc1c[nH]cn1)NC(=O)[C@@H](N)Cc1c[nH]cn1)C(=O)N[C@@H](CCCCN)C(=O)N[C@@H](CC(C)C)C(=O)N[C@@H](CCCCN)C(=O)N[C@H](C(=O)N[C@H](C(=O)NCC(=O)N[C@@H](CCC(N)=O)C(=O)N[C@@H](CC(=O)O)C(=O)N[C@@H](CO)C(=O)N[C@@H](CO)C(=O)N[C@@H](CCC(=O)O)C(=O)N[C@H](C(=O)N[C@@H](Cc1c[nH]cn1)C(=O)N[C@@H](Cc1ccccc1)C(=O)N[C@@H](CCCCN)C(=O)N[C@H](C(=O)N[C@@H](CCCCN)C(=O)N[C@@H](CCSC)C(=O)N[C@H](C(=O)N[C@H](C(=O)N[C@@H](Cc1c[nH]cn1)C(=O)N[C@@H](CC(C)C)C(=O)N[C@@H](CCCCN)C(=O)N[C@@H](CCCCN)C(=O)N[C@@H](CC(C)C)C(=O)N[C@@H](CCCCN)C(=O)N[C@@H](CCC(=O)O)C(=O)N[C@@H](CO)C(=O)N[C@@H](Cc1ccc(O)cc1)C(=O)N[C@@H](CS)C(=O)N[C@@H](CCC(N)=O)C(=O)N[C@@H](CCCNC(=N)N)C(=O)N[C@@H](CCC(N)=O)C(=O)O)[C@@H](C)O)[C@@H](C)O)C(C)C)[C@@H](C)CC)[C@@H](C)CC)C(C)C | Drosophila melanogaster | – | α-synuclein A53T transgenic | 120 µM, 11 days post eclosion, unit not given | relative to: untreated | climbing mean difference | -28
